Published values gathered from unrelated publications.
Each numbered part is a random draw from the data of one study; scales do not carry over between parts. Positions count from the first letter of the parent shown.

Sample 1
Target: Prothrombin, mature alpha-thrombin (F2, Homo sapiens, UniProt P00734)
Technique: aptamer microarray, sandwich
Form: DNA with 2'F-ANA
Medium: in vitro
Tested at: 200 nM
Setting: whole 15-mer aptamer, many near background
With: Cy3 exosite-II aptamer, 400 nM
Direction: higher = stronger binding
Quantity: mean fluorescence intensity
Sequence: GGTTGGTGTGGTTGG
2'F-ANA at 1 3 5 7 8 10 15: 47.5 a.u.
2'F-ANA at 1 2 4 5 6 7 11 12 13 14: 60.2 a.u.
2'F-ANA at 1 3 4 10 13 14: 118 a.u.
2'F-ANA at 3 4 6 7 8 10 11 13: 205 a.u.
2'F-ANA at 1 3 8 12 13: 539 a.u.
2'F-ANA at 3 5 6 9 10 11 15: 52.6 a.u.
2'F-ANA at 1 2 3 6 15: 232 a.u.
2'F-ANA at 2 5 6 10 12: 50.2 a.u.
2'F-ANA at 1 2 3 4 6 15: 223 a.u.
2'F-ANA at 2 5 6 11 12 13 14 15: 49.2 a.u.
2'F-ANA at 1 2 3 4 5 7 8 9 10 11 12 14: 77.2 a.u.
2'F-ANA at 1 4 6 9 10 12 14: 47.8 a.u.
2'F-ANA at 1 3 4 6 7 9 10 11 12 15: 72.7 a.u.
2'F-ANA at 1 2 4 5 8 9 11 15: 51.5 a.u.
2'F-ANA at 2 5 6 7 9 12 15: 133 a.u.
2'F-ANA at 2 5 7 10 11 12 13 14: 45.3 a.u.
2'F-ANA at 3 6 8 12 13 14 15: 591 a.u.
2'F-ANA at 1 2 3 10 12 15: 97.1 a.u.
2'F-ANA at 2 4 6 7 8 11 12 13 14: 115 a.u.
2'F-ANA at 1 2 4 5 6 9 11 12 13 15: 65.9 a.u.
2'F-ANA at 5 7 8 13 14: 43.2 a.u.
2'F-ANA at 1 2 3 4 5 6 7 8 9 10 11 14: 61.5 a.u.
2'F-ANA at 1 2 3 4 6 7 9 12 13 14: 57.7 a.u.
2'F-ANA at 3 5 7 10 11 12 13: 63.7 a.u.
2'F-ANA at 1 3 4 8 9 10 11 13 14 15: 52.7 a.u.

Sample 2
Target: CCND3, cyclin fold, Cln2 fusion (human)
Technique: yeast growth competition, sequencing
Medium: yeast
Setting: weak parent motif
Relative to: not given
Direction: higher = stronger binding
Quantity: normalised enrichment score
Starting sequence: CDC25A docking peptide (human); PPHRRRLLFACSP; partner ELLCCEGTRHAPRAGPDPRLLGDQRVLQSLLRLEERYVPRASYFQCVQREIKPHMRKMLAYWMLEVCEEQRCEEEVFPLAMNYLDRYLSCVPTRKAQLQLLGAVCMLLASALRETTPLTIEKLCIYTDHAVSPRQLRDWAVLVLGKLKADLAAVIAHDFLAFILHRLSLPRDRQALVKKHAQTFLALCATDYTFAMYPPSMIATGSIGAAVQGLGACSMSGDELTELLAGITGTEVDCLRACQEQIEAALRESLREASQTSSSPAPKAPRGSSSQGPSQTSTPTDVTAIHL
GPHRRRLLFACSP [P1G]: 0.125
PPHRRQLLFACSP [R6Q]: 0.185
PPPRRRLLFACSP [H3P]: 0.0755
PPHRERLLFACSP [R5E]: 0.0933
PPHGRRLLFACSP [R4G]: 0.167
PAHRRRLLFACSP [P2A]: 0.165
PGHRRRLLFACSP [P2G]: 0.162
PPSRRRLLFACSP [H3S]: 0.161
PPDRRRLLFACSP [H3D]: 0.241
PPHRRRLLQACSP [F9Q]: 0.125
PPHRRHLLFACSP [R6H]: 0.101
PPHRLRLLFACSP [R5L]: 0.198
PPHRRRFLFACSP [L7F]: 0.148
PPHRRRLLFACAP [S12A]: 0.153
PPHRRRLPFACSP [L8P]: 0.0758
PPHRARLLFACSP [R5A]: 0.121
PIHRRRLLFACSP [P2I]: 0.145
KPHRRRLLFACSP [P1K]: 0.166
PPHRRRLLFAPSP [C11P]: 0.146

Sample 3
Target: Sal-like protein 4, full length isoform A (SALL4, Homo sapiens, UniProt Q9UJQ4, residues 1-1053)
UniProt Q9UJQ4, sequence (whole entry, looked up): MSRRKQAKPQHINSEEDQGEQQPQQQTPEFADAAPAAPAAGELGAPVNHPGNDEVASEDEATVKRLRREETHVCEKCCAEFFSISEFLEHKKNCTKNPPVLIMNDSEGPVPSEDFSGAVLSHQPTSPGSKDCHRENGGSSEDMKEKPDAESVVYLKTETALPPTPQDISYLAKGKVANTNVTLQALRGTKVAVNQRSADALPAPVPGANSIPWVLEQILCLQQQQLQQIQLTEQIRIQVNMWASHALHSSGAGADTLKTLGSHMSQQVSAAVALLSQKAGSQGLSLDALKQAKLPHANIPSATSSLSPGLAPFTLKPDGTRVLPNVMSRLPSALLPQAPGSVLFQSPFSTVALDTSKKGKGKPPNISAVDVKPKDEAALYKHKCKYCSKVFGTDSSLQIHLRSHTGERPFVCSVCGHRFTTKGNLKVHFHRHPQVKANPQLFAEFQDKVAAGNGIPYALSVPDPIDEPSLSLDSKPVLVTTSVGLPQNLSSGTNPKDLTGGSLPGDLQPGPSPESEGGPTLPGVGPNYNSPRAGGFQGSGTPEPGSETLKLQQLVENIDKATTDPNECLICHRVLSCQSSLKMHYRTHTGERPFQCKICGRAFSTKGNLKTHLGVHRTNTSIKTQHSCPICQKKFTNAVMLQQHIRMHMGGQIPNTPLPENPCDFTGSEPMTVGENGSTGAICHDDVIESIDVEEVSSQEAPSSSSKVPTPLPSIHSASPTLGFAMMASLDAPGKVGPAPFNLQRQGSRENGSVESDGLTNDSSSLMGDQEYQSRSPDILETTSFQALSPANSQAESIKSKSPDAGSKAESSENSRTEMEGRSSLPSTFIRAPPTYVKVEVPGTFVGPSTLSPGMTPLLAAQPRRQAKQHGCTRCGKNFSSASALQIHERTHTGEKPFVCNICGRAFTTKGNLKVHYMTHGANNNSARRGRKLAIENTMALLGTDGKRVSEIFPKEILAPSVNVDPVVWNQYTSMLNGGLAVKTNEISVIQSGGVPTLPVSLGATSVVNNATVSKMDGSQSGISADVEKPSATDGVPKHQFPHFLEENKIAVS
Technique: universal PBM
Form: double-stranded DNA, one strand shown
Medium: in vitro
Tested at: 600 nM
Setting: 8-mer, flanks averaged, mean of replicates
Direction: higher = stronger binding
Quantity: E-score
AAATGTTG: 0.163
ACGATAGG: 0.131
GCCGCTGA: -0.223
AATAGAAT: 0.303
CCCGGGAG: -0.416
AATGCCTC: -0.0395
CGCGCCGC: -0.285
AAAATTTT: 0.342
AGAGTGAT: 0.0129
CTTGTGAA: 0.0924
CGAGCTCA: -0.159
AGATAACG: 0.164
TATTCGGA: 0.106
CGGAGGAC: -0.197
CAGGAATG: -0.0627
AGGAGCAG: -0.253
TCGAACAA: 0.101
AGGCCGAT: -0.156
GAACCCTA: -0.0123
ATCTATAA: 0.401
CCACAGGA: -0.0177
ACGGAGGG: -0.178
CCAAGCCG: -0.361

Sample 4
Target: UBE2Z UBC core domain (UniProt Q9H832)
Technique: yeast two-hybrid
Medium: yeast
Setting: mostly zero background
Relative to: not given
Direction: higher = stronger interaction
Quantity: lacZ reporter activity
B1: MYCBP2 RING domain (UniProt O75592); chain TSLKQDADDMCMICFTEALSAAPAIQLDCSHIFHLQCCRRVLENRWLGPRITFGFISCPICKNKINHIVLKD
B2: TRIM26 RING domain (UniProt Q12899); chain PLRSLEEEVTCSICLDYLRDPVTIDCGHVFCRSCTTDVRPISGSRPVCPLCKKPFKKENIRP
B3: TRIM54 RING domain (UniProt Q9BYV2); chain SMDNLEKQLICPICLEMFSKPVVILPCQHNLCRKCANDVFQASNPLWQSRGSTTVSSGGRFRCPSCRHEVVLDRHGV
B4: RNF31 RING domain (UniProt Q96EP0); chain AFLRRLLAQECAVCGWALPHNRMQALTSCECTICPDCFRQHFTIALKEKHITDMVCPACGRPDLTDDTQLL
B5: DEF8 RING domain (UniProt Q6ZN54); chain AGRLGCSLTEIHTLFAKHIKLDCERCQAKGFVCELCREGDVLFPFDSHTSVCADCSAVFHRDCYYDNSTTCPKCARLSLRK
B6: TRIM22 RING domain (UniProt Q8IYM9); chain VKVDIEKEVTCPICLELLTEPLSLDCGHSFCQACITAKIKESVIISRGESSCPVCQTRFQPGNLRP
B7: MEX3B RING domain (UniProt Q6ZN04); chain SGLRRKGSRDCSVCFESEVIAALVPCGHNLFCMECANRICEKSEPECPVCHTAVTQAIRIF
B8: MKRN2 RING domain (UniProt Q9H000); chain FAFQASQDKVCSICMEVILEKASASERRFGILSNCNHTYCLSCIRQWRCAKQFENPIIKSCPECRVISEFVIPSV
Residues (chain): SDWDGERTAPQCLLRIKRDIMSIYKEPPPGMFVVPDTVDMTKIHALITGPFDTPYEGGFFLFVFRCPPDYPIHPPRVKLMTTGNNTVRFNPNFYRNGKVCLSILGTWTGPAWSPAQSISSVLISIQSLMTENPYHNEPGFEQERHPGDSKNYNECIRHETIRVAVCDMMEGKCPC
B1 (MYCBP2 RING domain): 0
PEELAVNNDDCAICWDSMQAARKLPCGHLFHNSCLRSWLEQDTSCPTCRMSLNIADNNR (AMFR RING domain (UniProt Q9UKV5)): 0
B2 (TRIM26 RING domain): 0
YPEEVDDDLICHICLQALLDPLDTPCGHTYCTLCLTNFLVEKDFCPMDRKPLVLQHCKK (LNX1 RING domain (UniProt Q8TBB1)): 0
LGTKLEAKYLCSACRNVLRRPFQAQCGHRYCSFCLASILSSGPQNCAACVHEGIYEEGIS (TRAF2 RING domain (UniProt Q12933)): 2290
RYRQMEERITCPICIDSHIRLVFQCGHGACAPCGSALSACPICRQPIRDRIQIF (MIB2 RING domain (UniProt Q96AX9)): 0
B3 (TRIM54 RING domain): 0
LDAASGHPLVCPLCHGQYERPCLLDCFHDFCTGCLRGRATDGRLSCPLCQHQTLVKGPSG (Rnf207 RING domain (UniProt Q3V3A7)): 0
B4 (RNF31 RING domain): 0
MNDVLENELQCIICSEYFIEAVTLNCAHSFCSYCINEWMKRKIECPICRKDIKSKTYSL (RNF8 RING domain (UniProt O76064)): 0
B5 (DEF8 RING domain): 0
B6 (TRIM22 RING domain): 0
QVQSRTKIEECVVCSDKKAAVLFQPCGHMCACENCANLMKKCVQCRAVVERRVPFI (MIB1 RING domain (UniProt Q86YT6)): 0
B7 (MEX3B RING domain): 0
B8 (MKRN2 RING domain): 0

Sample 5
Target: FOSL2, bZIP domain (human)
Technique: DHFR protein complementation
Medium: yeast
Setting: single substitutions, most at no-binding floor
Relative to: wild-type JUN-FOS pair
Direction: higher = stronger binding
Quantity: binding fitness
Starting sequence: JUN, bZIP domain (human); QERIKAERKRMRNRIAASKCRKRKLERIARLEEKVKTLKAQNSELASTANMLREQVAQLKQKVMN; partner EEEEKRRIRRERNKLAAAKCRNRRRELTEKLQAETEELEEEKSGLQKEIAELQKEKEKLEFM
Q55E: 0.0413 natural log
I28M: -0.0298 natural log
T48L: 0.0684 natural log
K34H: 0.113 natural log
E54G: 0.0562 natural log
L45I: -0.801 natural log
L38S: -0.808 natural log
A46P: -1.45 natural log
K34A: 0.0381 natural log
A49E: -0.531 natural log
L52A: -1.37 natural log
E32N: -0.155 natural log
L38E: -1.35 natural log
S43H: 0.128 natural log

Sample 6
Target: ABI1, truncated, D143A, DHFR fusion (Arabidopsis thaliana)
Technique: DHFR PCA, deep sequencing
Medium: yeast
Setting: methotrexate growth selection, single substitutions
With: (+)-ABA 4.8 µM
Relative to: wild-type fitted maximum
Direction: higher = stronger binding
Quantity: relative binding score
Starting sequence: PYL1, truncated, DHFR fusion (Arabidopsis thaliana); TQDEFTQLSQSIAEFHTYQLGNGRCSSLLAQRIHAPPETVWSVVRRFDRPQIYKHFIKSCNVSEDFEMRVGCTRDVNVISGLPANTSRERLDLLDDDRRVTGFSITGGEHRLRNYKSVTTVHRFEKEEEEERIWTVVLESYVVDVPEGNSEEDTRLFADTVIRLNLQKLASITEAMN
G81Q: 4.07%
S104G: 5.01%
M176Y: 51.5%
Q10W: 41.8%
E128N: 78.2%
E127S: 80.5%
L94W: 48.2%
G108M: -5.82%
E64M: 55.1%
H16P: 11.2%
V100R: 7.82%
L20R: 74.4%
T101M: 80.2%
K54T: -14%
T17I: 17.8%
T120L: -6.7%
A175V: 59.4%
I162A: -14.9%
N22D: 80%
S104E: -5.87%
V142Y: 8.81%
L20P: 84.3%
I52T: 77.1%
R49L: 38.4%
L94A: 0.795%

Excerpt of the above (sample 1):
2'F-ANA at 1 2 4 5 6 9 11 12 13 15: 65.9 a.u.
2'F-ANA at 1 2 3 4 6 15: 223 a.u.
2'F-ANA at 1 3 5 7 8 10 15: 47.5 a.u.
2'F-ANA at 2 5 6 11 12 13 14 15: 49.2 a.u.
2'F-ANA at 1 2 3 4 5 7 8 9 10 11 12 14: 77.2 a.u.
2'F-ANA at 2 5 7 10 11 12 13 14: 45.3 a.u.
2'F-ANA at 1 3 4 10 13 14: 118 a.u.
2'F-ANA at 1 3 4 6 7 9 10 11 12 15: 72.7 a.u.
2'F-ANA at 1 2 4 5 8 9 11 15: 51.5 a.u.
2'F-ANA at 3 5 7 10 11 12 13: 63.7 a.u.
2'F-ANA at 1 2 3 10 12 15: 97.1 a.u.
2'F-ANA at 2 5 6 10 12: 50.2 a.u.
2'F-ANA at 1 2 4 5 6 7 11 12 13 14: 60.2 a.u.
2'F-ANA at 2 5 6 7 9 12 15: 133 a.u.
2'F-ANA at 1 3 4 8 9 10 11 13 14 15: 52.7 a.u.
2'F-ANA at 1 2 3 4 6 7 9 12 13 14: 57.7 a.u.
2'F-ANA at 1 2 3 6 15: 232 a.u.
2'F-ANA at 1 2 3 4 5 6 7 8 9 10 11 14: 61.5 a.u.
